Published values from different studies.
Each line is one published result; not all experiments were run side by side. Several values in a cell are separate wells, animals, samples, runs or records. ± marks the error that the study gave.
Fibroin-modulator-binding protein-1: Fibroin-modulator-binding protein-1 99-193 (Bombyx mori, UniProt Q5FBS0)
SPT15/TOA1/TOA2/SUA7 1-240; 1-286; 1-122; 1-345: SPT15/TOA1/TOA2/SUA7 1-240; 1-286; 1-122; 1-345 (Saccharomyces cerevisiae)
Chain of UniProt P48067 (whole entry, looked up): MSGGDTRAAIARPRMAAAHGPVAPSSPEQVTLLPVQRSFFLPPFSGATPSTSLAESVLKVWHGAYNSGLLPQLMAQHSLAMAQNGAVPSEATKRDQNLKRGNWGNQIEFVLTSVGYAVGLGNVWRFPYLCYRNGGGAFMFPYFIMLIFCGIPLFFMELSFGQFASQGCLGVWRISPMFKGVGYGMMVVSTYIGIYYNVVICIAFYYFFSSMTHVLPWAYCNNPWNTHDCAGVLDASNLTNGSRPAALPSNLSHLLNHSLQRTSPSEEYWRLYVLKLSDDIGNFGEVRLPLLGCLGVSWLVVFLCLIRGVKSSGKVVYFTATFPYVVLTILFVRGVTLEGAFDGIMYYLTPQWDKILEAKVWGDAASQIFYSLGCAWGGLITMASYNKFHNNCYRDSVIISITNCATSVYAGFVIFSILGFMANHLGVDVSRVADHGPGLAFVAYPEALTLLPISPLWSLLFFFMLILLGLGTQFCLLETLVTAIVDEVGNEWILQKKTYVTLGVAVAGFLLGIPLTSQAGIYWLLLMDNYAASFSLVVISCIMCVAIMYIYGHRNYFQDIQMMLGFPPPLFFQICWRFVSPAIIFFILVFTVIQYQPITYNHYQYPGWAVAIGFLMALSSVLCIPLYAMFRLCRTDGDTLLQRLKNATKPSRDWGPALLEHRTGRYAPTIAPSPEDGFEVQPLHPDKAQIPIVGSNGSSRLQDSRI
Chain of UniProt Q64663 (whole entry, unmodified, looked up): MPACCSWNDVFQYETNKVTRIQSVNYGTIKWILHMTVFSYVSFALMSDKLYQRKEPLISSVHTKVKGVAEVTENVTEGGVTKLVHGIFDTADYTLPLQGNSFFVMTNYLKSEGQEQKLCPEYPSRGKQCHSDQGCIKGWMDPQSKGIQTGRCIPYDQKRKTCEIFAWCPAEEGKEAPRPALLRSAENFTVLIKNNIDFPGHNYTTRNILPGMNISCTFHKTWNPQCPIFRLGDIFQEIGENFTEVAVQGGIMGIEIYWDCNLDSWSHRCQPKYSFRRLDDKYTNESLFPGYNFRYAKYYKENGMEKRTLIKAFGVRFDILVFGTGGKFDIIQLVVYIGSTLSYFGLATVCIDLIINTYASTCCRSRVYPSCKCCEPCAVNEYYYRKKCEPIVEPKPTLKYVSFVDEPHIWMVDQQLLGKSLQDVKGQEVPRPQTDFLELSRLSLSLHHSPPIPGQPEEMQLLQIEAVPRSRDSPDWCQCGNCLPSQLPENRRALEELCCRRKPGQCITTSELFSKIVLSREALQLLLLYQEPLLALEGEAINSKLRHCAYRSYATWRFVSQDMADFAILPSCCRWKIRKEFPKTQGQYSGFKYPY
Chain of UniProt P01185 (whole entry, looked up): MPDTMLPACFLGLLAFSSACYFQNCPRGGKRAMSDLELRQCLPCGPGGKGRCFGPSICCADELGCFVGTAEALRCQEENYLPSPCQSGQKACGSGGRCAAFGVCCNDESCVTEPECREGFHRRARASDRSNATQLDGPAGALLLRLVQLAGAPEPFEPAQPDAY
Chain of UniProt Q00059 (whole entry, looked up): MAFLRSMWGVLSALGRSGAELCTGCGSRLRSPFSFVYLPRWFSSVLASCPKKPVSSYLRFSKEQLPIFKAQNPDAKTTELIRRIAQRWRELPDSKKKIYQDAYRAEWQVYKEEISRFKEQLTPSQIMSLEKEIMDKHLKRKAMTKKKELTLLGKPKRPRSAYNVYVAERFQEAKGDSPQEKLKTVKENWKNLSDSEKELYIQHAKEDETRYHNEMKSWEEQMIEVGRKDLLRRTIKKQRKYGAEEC
Chain of UniProt Q8IUX4 (whole entry, looked up): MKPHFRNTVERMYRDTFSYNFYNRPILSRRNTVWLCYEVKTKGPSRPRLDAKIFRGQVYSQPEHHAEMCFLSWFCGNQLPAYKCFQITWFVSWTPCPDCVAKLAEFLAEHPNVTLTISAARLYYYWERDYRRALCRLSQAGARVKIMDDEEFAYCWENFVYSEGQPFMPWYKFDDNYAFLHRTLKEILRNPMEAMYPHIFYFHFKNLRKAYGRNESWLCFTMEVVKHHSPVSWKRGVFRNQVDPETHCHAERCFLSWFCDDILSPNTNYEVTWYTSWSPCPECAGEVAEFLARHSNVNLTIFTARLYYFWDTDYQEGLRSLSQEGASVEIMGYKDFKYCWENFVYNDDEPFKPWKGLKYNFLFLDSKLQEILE
Chain of UniProt P46063 (whole entry, looked up): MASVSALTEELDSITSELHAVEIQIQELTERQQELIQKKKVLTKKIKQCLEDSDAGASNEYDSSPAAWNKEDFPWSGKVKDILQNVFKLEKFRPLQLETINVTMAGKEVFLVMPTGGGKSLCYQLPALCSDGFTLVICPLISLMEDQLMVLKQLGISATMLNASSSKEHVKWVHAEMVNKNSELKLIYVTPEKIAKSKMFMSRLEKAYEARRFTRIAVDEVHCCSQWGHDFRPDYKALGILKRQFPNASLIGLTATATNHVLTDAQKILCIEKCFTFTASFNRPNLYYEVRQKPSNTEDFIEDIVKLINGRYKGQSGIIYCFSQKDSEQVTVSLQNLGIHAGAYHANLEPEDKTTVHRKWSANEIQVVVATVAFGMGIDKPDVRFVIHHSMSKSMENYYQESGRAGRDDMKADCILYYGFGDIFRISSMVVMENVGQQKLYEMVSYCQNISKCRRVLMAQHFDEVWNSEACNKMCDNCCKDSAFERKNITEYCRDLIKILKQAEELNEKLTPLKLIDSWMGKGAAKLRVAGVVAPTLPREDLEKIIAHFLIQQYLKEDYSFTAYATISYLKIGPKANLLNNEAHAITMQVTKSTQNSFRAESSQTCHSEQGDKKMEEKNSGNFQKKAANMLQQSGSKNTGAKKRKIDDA
Chain of UniProt P19880 (whole entry, looked up): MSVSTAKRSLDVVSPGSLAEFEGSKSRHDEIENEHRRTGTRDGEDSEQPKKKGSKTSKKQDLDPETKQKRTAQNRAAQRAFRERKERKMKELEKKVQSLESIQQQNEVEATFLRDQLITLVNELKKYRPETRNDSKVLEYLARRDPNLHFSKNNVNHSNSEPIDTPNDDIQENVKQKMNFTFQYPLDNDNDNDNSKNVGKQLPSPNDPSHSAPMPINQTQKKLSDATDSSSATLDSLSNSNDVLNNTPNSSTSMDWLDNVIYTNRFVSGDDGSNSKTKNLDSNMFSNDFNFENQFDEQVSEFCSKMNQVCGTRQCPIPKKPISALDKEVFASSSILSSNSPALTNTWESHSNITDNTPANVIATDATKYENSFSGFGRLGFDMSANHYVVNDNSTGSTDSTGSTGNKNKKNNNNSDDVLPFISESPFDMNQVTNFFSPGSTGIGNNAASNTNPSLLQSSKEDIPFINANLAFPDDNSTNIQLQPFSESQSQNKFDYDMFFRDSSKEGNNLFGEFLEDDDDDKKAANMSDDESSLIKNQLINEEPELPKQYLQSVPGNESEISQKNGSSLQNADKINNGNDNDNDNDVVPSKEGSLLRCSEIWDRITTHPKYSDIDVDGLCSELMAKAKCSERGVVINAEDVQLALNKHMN
Chain of UniProt O67035 (whole entry, looked up): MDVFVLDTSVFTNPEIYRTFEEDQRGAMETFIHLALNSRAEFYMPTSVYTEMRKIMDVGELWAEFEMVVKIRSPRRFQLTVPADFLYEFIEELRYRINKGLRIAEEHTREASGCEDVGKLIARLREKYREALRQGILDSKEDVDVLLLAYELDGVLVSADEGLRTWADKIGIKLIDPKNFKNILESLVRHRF
Chain of UniProt Q03111 (whole entry, looked up): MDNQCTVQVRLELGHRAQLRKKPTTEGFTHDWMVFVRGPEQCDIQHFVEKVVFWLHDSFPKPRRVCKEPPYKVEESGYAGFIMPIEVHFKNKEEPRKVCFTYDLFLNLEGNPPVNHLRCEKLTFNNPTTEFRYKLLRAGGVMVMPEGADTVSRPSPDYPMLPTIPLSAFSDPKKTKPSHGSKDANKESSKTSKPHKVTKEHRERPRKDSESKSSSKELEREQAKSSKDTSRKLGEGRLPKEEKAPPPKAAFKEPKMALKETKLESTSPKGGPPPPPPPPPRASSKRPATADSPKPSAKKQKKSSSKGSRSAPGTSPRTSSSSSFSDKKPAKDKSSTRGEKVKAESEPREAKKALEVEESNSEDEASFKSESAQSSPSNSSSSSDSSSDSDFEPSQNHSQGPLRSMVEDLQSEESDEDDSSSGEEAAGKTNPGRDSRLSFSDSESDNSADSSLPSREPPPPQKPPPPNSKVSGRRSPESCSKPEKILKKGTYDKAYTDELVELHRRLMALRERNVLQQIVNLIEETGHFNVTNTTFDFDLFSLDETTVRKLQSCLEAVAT
Chain of UniProt Q01844 (whole entry, looked up): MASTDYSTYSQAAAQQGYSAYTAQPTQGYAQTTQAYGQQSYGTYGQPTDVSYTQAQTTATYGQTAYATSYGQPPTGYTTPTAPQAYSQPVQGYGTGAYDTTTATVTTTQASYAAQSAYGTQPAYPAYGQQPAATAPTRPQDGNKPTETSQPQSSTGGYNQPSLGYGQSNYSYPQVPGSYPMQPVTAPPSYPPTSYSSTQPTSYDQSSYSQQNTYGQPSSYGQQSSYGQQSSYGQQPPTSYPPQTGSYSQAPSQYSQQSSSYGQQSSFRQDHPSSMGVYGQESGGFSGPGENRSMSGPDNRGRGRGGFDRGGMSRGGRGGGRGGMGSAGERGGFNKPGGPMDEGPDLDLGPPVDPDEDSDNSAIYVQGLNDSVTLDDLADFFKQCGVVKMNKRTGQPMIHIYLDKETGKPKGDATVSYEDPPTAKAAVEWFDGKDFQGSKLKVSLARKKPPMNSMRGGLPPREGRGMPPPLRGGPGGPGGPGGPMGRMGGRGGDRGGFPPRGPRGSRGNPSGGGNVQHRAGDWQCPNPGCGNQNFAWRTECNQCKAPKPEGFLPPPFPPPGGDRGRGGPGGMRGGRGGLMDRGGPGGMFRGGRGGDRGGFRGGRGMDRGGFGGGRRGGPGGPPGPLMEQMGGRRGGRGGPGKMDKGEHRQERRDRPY

| Molecule | tested on | assay | system | setting | scale | quantity | result |
| --- | --- | --- | --- | --- | --- | --- | --- |
| AAGCAAGCAAGC (dsDNA) | Fibroin-modulator-binding protein-1 | ITC | double-stranded DNA, one strand shown | – | – | Kd | 7010 nM |
| insulin degludec | – | – | human | subcutaneous, 0.4 IU/kg, 3 FC level, single dose, reference formulation | – | terminal half-life | 16.8 ± 4.2 h |
| TTAATTAATTAA (dsDNA) | Fibroin-modulator-binding protein-1 | ITC | double-stranded DNA, one strand shown | – | – | Kd | 914 ± 66.5 nM |
| GTTCCTGAAGGGGGGGCTATAAACGGGGGTGGGGGTCAAGTCAATCGGTCC (dsDNA; 5'-amino-C6 primer) | SPT15/TOA1/TOA2/SUA7 1-240; 1-286; 1-122; 1-345 | array | double-stranded DNA, one strand shown | TBP:TFIIA:TFIIB ternary complex | – | Kd | 1.79 ± 0.18 nM |
| CTCTCGGGACGACGTCCAAGTAGTACGTTTAATTAGGATTTCCGAATTATTGGCATGCGTCGTCCC (DNA; stem-loop; 5' amino group) | arginine vasopressin 20-28 (Homo sapiens, UniProt P01185) | FET | folded DNA | apparent | – | Kd | 1.3 nM |
| 11-deoxycorticosterone | CYP11B2 (human) | substrate binding, stopped-flow global kinetic fitting | purified enzyme | 3-state induced fit model, with: 10-fold excess adrenodoxin | – | rate constant k2 | 0.0116 ± 0.197 s⁻¹ |
| CTGACTGACTGA (dsDNA) | Fibroin-modulator-binding protein-1 | ITC | double-stranded DNA, one strand shown | – | – | Kd | 5370 ± 543 nM |
| BzATP | P2X purinoceptor 7 (P2rx7, Rattus norvegicus, UniProt Q64663, I214A/Q143A/R125A) | ion current, agonist, two-electrode voltage clamp | Xenopus oocytes | 33 µM | – | normalized current | 0.0519 and 0.0746 and 0.0719 |
| PMESGICTIV | human MAGI1-2/6 PDZ construct (MBP fusion) | surface plasmon resonance | peptide | concentration not given | higher = stronger binding | normalised SPR binding response | 0 normalised RU |
| TCCTGAAGAGGCGCCCTAGCTTGGTCCTATCGTCGTCAAGTCAATCGGTCC (dsDNA; 5'-amino-C6 primer) | SPT15/TOA1/TOA2/SUA7 1-240; 1-286; 1-122; 1-345 | array | double-stranded DNA, one strand shown | TBP:TFIIA:TFIIB ternary complex | – | Kd | 2.06 ± 0.59 nM |
| ATTTATATTATTTATTCATATTTATATTTA (ssDNA) | APOBEC3F full length assumed (Homo sapiens, UniProt Q8IUX4) | EMSA | single-stranded DNA | – | – | Kd | 1100 ± 335 nM |
| DNA 1 CACTGGCCGTCTTACGGTCGCTCTGCTCGACG / DNA 2 CGACCGTAAGACGGCCAGTG (dsDNA; 20 bp, 3' 12 nt overhang) | RECQL 63-592 M199A (Bos taurus, UniProt A0JN36) | fluorescence anisotropy | double-stranded DNA | with: Mg2+ 3 mM | – | Kd | 5.8 ± 1.4 nM |
| AAAUGAGGCGCUGCAUGUGGCAGUCUGCCUUUCUUU (structured RNA) | MLLT1 1-140 (Homo sapiens, UniProt Q03111) | fluorescence polarization | folded RNA | – | – | Kd | 150 ± 17 nM |
| DNA 1 TAACAAAAAATTTCCACCAAAC / DNA 2 TTTGGTGGAAATTTTTTGTTAG (dsDNA (Homo sapiens); 3' overhang) | TFAM 43-246 (Homo sapiens, UniProt Q00059) | fluorescence polarization | double-stranded DNA | – | – | Kd | 2.5 ± 0.9 nM |
| GATGGATGGATG (dsDNA) | Fibroin-modulator-binding protein-1 | ITC | double-stranded DNA, one strand shown | – | – | Kd | 2050 ± 188 nM |
| CGCAATTAGATAATTAGCCAATTAGCGAATTAGCTAATTAGGCAATTAGGGAATTCTCCGGCGGTATGAC (dsDNA) | YAP1 full length assumed (Saccharomyces cerevisiae, UniProt P19880) | MITOMI | double-stranded DNA, one strand shown | not purified | – | Kd | 1600 ± 200 nM |
| AAAAAAAAAAAA (dsDNA) | Fibroin-modulator-binding protein-1 | ITC | double-stranded DNA, one strand shown | – | – | Kd | 2850 ± 361 nM |
| FGA (Homo sapiens, UniProt P02671) | NOP58 (Homo sapiens, UniProt Q9Y2X3) | cross-linking MS | – | with: DSSO | – | cross-linked residues | K463 to K99 |
| TATCACAGAAAAAAAGAAAATATAATAAATTAGTATCAAGTCAATCGGTCC (dsDNA; 5'-amino-C6 primer) | SPT15/TOA1/TOA2/SUA7 1-240; 1-286; 1-122; 1-345 | array | double-stranded DNA, one strand shown | TBP:TFIIA:TFIIB ternary complex | – | Kd | 4.01 ± 1.04 nM |

| Molecule | tested on | assay | system | setting | scale | quantity | result |
| --- | --- | --- | --- | --- | --- | --- | --- |
| FNA / CGLSGLGVA-NH2 ([18F]FNA-labelled, C-amide) | – | ex vivo gamma counting | peptide, healthy mouse, urine | 60 min post injection | – | tissue uptake | 538 %ID/g |
| ATGATTACTAATTCTTAACATTCGAGTTCAATCTCTCAAGTCAATCGGTCC (dsDNA; 5'-amino-C6 primer) | SPT15/TOA1/TOA2/SUA7 1-240; 1-286; 1-122; 1-345 | array | double-stranded DNA, one strand shown | TBP:TFIIA:TFIIB ternary complex | – | Kd | 3.28 ± 0.9 nM |
| DNA 1 TGGGTGGGTAGGGTGGGTAGGGGAGGAT / DNA 2 ATCCTCCCCTA (DNA; intramolecular parallel G4, 5' overhang, 11-bp duplex) | REV1 330-833 K388N (Homo sapiens, UniProt Q9UBZ9) | FP | folded DNA | KCl 100 mM | – | Kd | 3.3 ± 1 nM |
| ACAGACAGACAG (dsDNA) | Fibroin-modulator-binding protein-1 | ITC | double-stranded DNA, one strand shown | – | – | Kd | 6110 ± 982 nM |
| AAAGAAAGAAAGAAAGAAAGAAAG (ssDNA) | CGAS 161-522 K394E (Homo sapiens, UniProt Q8N884) | fluorescence anisotropy | single-stranded DNA | – | – | Kd | 1130 ± 48 nM |
| TCCTGAAGGGACGCCTATAAAAGGTCCTATCGTCGTCAAGTCAATCGGTCC (dsDNA; 5'-amino-C6 primer) | SPT15/TOA1/TOA2/SUA7 1-240; 1-286; 1-122; 1-345 | array | double-stranded DNA, one strand shown | TBP:TFIIA:TFIIB ternary complex | – | Kd | 4.01 ± 1.37 nM |
| DNA 1 GGATCTCGACGCTCTCCCTT / DNA 2 GAGAGCGTCGAGATCC (dsDNA; 3' 4-nt overhang, blunt end) | RECQL 49-616 (Homo sapiens, UniProt P46063) | fluorescence anisotropy | double-stranded DNA | Mg2+ 5 mM, with: ADPNP 2 mM | – | Kd | 331 ± 40 nM |
| ATGTCACAGAAGCAAAGTACGAATCAGAATCAAAATCAAGTCAATCGGTCC (dsDNA; 5'-amino-C6 primer) | SPT15/TOA1/TOA2/SUA7 1-240; 1-286; 1-122; 1-345 | array | double-stranded DNA, one strand shown | TBP:TFIIA:TFIIB ternary complex | – | Kd | 1.92 ± 0.31 nM |
| CTGCTGGAAACGCCGCGGTCGTAGTAAGACCGCGGCGTTTCCAGCAG (DNA; hairpin, 20 bp stem, 7 nt loop) | EWSR1 1-656 (Homo sapiens, UniProt Q01844) | EMSA | folded DNA | – | – | Kd | 236 ± 5 nM |
| DNA 1 GCCGGGCCGGCCGGCCGGCCCCCGGGGCCCGGCGCTCAATTCAATCGGTCC / DNA 2 GGACCGATTGACTTGAGCGCCGGGCCCCGGGGGCCGGCCGGCCGGCCCGGC (dsDNA; blunt; C:T mismatch; 5'-amino-C6 primer) | SPT15/TOA1/TOA2/SUA7 1-240; 1-286; 1-122; 1-345 | array | double-stranded DNA | TBP:TFIIA:TFIIB ternary complex | – | Kd | 2.87 ± 0.33 nM |
| methyl-β-cyclodextrin | SLC6A9 (Homo sapiens, UniProt P48067) | transport activity, [3H]glycine uptake | – | 2.5 mg/mL, 1 min, with: glycine 900 µM | higher = more transport | glycine uptake rate | 76.2 a.u. and 65.5 a.u. and 76.4 a.u. and 66.1 a.u. |
| UAGAAGCGGAUUUAGCUCAGUUGGGAGAGCGCCAGACUGAAGAUCUGGAGGUCCUGUGUUCGAUCCACAGAAUUCGCA (tRNA (Saccharomyces cerevisiae)) | RNA-free ribonuclease P 1-192 (Aquifex aeolicus, UniProt O67035) | fluorescence polarization | folded RNA | with: CaCl2 20 mM | – | Kd | 150 ± 20 nM |
| AGTAAGTAAGTA (dsDNA) | Fibroin-modulator-binding protein-1 | ITC | double-stranded DNA, one strand shown | – | – | Kd | 6050 nM |
| colistin | Salmonella enterica Derby | broth microdilution | clinical isolate RKI 270/14 | – | – | MIC | ≤ 0.5 µg/mL |
| GSGAGSETKM | human SCRIB PDZ3-4 tandem (MBP fusion) | surface plasmon resonance | peptide | concentration not given | higher = stronger binding | normalised SPR binding response | 15 normalised RU |
| AGAAAGAAAGAA (dsDNA) | Fibroin-modulator-binding protein-1 | ITC | double-stranded DNA, one strand shown | – | – | Kd | 3480 ± 348 nM |
| CTCAGGAATTCCTATCAAGTAATGTGGAGCTCAGTTCAAGTCAATCGGTCC (dsDNA; 5'-amino-C6 primer) | SPT15/TOA1/TOA2/SUA7 1-240; 1-286; 1-122; 1-345 | array | double-stranded DNA, one strand shown | TBP:TFIIA:TFIIB ternary complex | – | Kd | 2.13 ± 0.33 nM |
| Peginesatide | UT7/EPO | tyrosine phosphorylation, LC-MS/MS phosphoproteomics, trypsin, item: VAV1 tyrosine 844 | – | 10 nM, 15 min, with: 10 U/mL EPO | baseline: vehicle | phosphorylation level | 7.6 fold |
